Measured values from different studies.
Lines come from different studies, so protocols differ. ± gives the spread as reported.
ALB: Albumin (ALB, Homo sapiens, UniProt P02768)
ABCG2: Broad substrate specificity ATP-binding cassette transporter ABCG2 (ABCG2, Homo sapiens, UniProt Q9UNQ0)
UniProt Q9UNQ0, sequence (whole entry, looked up): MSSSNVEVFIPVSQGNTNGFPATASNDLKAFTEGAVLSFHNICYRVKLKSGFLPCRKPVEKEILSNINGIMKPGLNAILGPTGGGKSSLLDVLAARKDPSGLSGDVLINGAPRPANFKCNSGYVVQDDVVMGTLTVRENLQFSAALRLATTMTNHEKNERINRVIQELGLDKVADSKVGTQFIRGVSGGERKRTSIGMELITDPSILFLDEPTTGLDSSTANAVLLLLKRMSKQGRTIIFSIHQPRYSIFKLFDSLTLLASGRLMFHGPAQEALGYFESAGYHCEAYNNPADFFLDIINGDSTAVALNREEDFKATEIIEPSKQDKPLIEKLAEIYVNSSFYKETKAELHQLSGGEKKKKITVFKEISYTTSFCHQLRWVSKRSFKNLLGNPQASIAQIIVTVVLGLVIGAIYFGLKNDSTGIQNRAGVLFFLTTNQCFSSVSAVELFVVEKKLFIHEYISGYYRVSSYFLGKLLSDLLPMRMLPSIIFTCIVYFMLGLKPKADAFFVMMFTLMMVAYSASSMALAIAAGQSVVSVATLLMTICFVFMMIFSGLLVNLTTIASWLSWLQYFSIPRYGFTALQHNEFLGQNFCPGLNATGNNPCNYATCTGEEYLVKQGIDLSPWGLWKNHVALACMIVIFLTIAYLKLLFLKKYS
UniProt P04800, sequence (whole entry, looked up): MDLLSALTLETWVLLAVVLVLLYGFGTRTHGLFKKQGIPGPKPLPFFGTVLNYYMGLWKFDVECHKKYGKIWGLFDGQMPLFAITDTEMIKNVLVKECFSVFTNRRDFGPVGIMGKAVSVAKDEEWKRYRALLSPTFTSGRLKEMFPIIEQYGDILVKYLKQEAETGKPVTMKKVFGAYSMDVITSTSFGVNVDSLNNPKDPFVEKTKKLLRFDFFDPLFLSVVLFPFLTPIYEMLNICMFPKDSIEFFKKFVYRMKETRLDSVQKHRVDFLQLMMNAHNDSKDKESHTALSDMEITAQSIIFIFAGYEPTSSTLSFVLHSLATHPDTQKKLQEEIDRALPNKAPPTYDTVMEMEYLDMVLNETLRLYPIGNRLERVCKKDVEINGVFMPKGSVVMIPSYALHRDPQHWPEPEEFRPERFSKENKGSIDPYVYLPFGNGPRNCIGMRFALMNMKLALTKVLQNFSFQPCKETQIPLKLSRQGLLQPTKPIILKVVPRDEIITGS
UniProt P16257, sequence (whole entry, looked up): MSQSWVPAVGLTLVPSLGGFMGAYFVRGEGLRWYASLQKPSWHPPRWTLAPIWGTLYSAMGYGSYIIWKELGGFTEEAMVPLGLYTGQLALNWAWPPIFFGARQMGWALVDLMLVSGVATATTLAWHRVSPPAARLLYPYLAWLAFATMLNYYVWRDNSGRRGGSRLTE
UniProt Q09128, sequence (whole entry, looked up): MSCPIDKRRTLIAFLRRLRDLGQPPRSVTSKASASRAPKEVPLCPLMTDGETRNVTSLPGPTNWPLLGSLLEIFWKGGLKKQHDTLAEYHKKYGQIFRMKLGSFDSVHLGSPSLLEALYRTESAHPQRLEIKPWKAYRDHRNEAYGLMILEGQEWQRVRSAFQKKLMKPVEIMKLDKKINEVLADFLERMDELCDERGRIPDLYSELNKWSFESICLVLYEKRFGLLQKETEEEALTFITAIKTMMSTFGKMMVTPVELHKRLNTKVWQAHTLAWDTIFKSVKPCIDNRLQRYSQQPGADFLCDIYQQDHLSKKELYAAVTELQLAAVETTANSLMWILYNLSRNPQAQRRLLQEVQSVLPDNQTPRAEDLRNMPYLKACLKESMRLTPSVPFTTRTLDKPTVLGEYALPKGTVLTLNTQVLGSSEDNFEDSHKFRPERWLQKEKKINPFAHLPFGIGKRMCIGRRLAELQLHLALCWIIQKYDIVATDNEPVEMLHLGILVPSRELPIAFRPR
UniProt P08246, sequence (whole entry, looked up): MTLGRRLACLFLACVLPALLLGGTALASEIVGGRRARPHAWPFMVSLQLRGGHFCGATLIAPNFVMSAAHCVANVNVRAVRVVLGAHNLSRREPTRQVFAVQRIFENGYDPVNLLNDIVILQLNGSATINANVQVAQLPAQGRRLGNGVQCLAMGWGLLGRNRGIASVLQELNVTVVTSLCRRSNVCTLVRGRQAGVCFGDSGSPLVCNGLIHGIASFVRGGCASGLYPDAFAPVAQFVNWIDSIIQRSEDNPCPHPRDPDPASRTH
UniProt P08684, sequence (whole entry, looked up): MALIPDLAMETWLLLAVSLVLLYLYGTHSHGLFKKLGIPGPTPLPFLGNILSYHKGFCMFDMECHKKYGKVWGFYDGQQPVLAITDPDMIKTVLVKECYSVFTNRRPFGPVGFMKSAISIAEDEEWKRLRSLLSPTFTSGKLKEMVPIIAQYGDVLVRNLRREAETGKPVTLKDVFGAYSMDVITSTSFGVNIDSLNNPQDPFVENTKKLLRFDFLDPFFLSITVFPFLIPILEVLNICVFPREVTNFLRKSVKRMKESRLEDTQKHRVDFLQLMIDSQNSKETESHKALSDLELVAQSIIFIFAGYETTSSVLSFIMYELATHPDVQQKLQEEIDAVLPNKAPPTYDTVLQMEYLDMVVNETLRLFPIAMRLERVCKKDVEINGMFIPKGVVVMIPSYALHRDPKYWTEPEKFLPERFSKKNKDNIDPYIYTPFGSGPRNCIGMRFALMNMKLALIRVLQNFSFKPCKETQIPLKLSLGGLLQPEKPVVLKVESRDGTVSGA
UniProt Q8R431, sequence (whole entry, looked up): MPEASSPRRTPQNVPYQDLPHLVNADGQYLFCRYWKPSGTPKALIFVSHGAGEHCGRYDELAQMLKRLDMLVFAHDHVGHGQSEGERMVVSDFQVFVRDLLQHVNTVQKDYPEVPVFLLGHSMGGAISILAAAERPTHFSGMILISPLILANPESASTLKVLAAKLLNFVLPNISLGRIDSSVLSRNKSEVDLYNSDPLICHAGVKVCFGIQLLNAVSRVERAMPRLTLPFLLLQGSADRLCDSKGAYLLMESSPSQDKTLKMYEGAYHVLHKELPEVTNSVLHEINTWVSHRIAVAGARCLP

Structure (SMILES)	target	assay	test system	setting	how to read	quantity	value
Cc1cc(C)c(-c2cc(C)c(OP(=O)([O-])OCCC[C@H](C(=O)[O-])N3CCN(CC(=O)[O-])CCN(CC(=O)NCC(=O)[O-])CCN(CC(=O)[O-])CC3)cc2C)c(C)c1.[Gd+3]	ALB	variable temperature NMRD	HSA-bound complex	–	–	ZFS modulation correlation time	17 ps
COc1ccc2cc(NC(=O)c3cc(-c4ccncc4)nc4ccccc34)ccc2c1	Cytochrome P450 3A4 (CYP3A4, Homo sapiens, UniProt P08684)	substrate, item: naphthalene-hydroxylated metabolite M1	baculosomes	–	–	kcat	0.00683 s⁻¹
[11CH3]Oc1ccc(C(=O)Nc2c(-c3cccs3)nc3ccccn23)cc1	δ-containing GABAA receptor	–	pig (female Landrace × Yorkshire × Duroc), cerebellum	intravenous bolus, dose not given	reference: baseline	total distribution volume	3.4 mL/cm³
[64Cu+2].c1ccc(CNCc2ccc(CN3CCCN4CCNCCCN(CC4)CC3)cc2)nc1	CXCR4	–	NOD/SCID mouse, U87 and U87-stb-CXCR4 xenografts, liver	iv, 60 min, ex vivo	–	tissue uptake	91.5 ± 6.03 %ID/g
CCc1cc(C)nc2c(CC(=O)N(CC)CC)c(-c3ccc(OCC[18F])cc3)nn12	Translocator protein (Tspo, Rattus norvegicus, UniProt P16257)	two-tissue compartment model	rat C6 glioma model, tumor	60 min dynamic PET	–	K1/k2 ratio	0.55 mL/cm3
O=C(O)C1OC(Oc2c(-c3ccccc3O)oc3ccccc3c2=O)C(O)C(O)C1O (centres unmarked)	ABCG2	glucuronide efflux, substrate	HeLa cells expressing UGT1A9	–	–	Km	35.9 ± 14.9 µM
COc1cc(OC)c(C(=O)/C=C/c2cccc([N+](=O)[O-])c2)c(O)c1Br	ABCG2	mitoxantrone efflux, flow cytometry	HEK293 transfected with ABCG2	5 µM, 30 min, added: mitoxantrone	reference: 5 µM GF120918 as 100%	inhibition	63.7 ± 12.7%
O=C(O)C1OC(Oc2c(-c3ccccc3)oc3ccc(O)cc3c2=O)C(O)C(O)C1O (centres unmarked)	ABCG2	substrate, glucuronide efflux	HeLa-UGT1A9 cells	–	–	log CLint	0.04
Cc1cc(C)c(-c2cc(C)c(OP(=O)([O-])OCCC[C@H](C(=O)[O-])N3CCN(CC(=O)[O-])CCN(C(C(=O)[O-])C(=O)[O-])CCN(CC(=O)[O-])CC3)cc2C)c(C)c1.[Gd+3]	ALB	albumin binding, variable temperature NMRD fit	albumin-bound complex	0.1 mM, pH 7.4, 37 °C, fit 5-35 °C data, added: HSA 0.66 mM	–	water residency time	9.8 ns
Cc1cn(-c2cc(NC(=O)c3ccc(C)c(Nc4ncccn4)c3)cc(C(F)(F)F)c2)cn1	ABCG2	–	MCF7-FLV1000, overexpressing	added: mitoxantrone 5 µM	–	IC20	1010 nM
COc1cc(-c2nc3ccccc3s2)cc(CN2Cc3cccc(n3)CN(C)Cc3cccc(n3)C2)c1O	Cu2+ complex [ML]+	UV-vis titration	–	room temperature	–	stability constant	27.2 log K
O=C(O)C1OC(Oc2c(-c3ccccc3)oc3cc(O)ccc3c2=O)C(O)C(O)C1O (centres unmarked)	ABCG2	glucuronide efflux, substrate	HeLa cells expressing UGT1A9	–	–	Km	3.5 ± 0.9 µM
O=C(/C=C/c1ccccc1Cl)c1ccc2c(c1)OCO2	ABCG2	mitoxantrone efflux, flow cytometry	HEK293 transfected with ABCG2	5 µM, 30 min, added: mitoxantrone	reference: 5 µM GF120918 as 100%	inhibition	59.1 ± 11.2%
O=C(O)C1OC(Oc2ccc3c(=O)cc(-c4ccccc4)oc3c2)C(O)C(O)C1O (centres unmarked)	ABCG2	glucuronide efflux, substrate	HeLa-UGT1A9	–	–	Vmax	303 pmol/min/mg protein
Cc1ccc(/C=C/C(=O)c2ccc3ccccc3c2)cc1	ABCG2	mitoxantrone efflux, flow cytometry	HEK293 transfected with ABCG2	5 µM, 30 min, added: mitoxantrone	reference: 5 µM GF120918 as 100%	inhibition	11 ± 2.8%
NS(=O)(=O)Nc1ncnc(OCCOc2ncc(Br)cn2)c1-c1ccc(Br)cc1	Cytochrome P450 3A1 (Cyp3a1, Rattus norvegicus, UniProt P04800)	metabolite formation	female rat, recombinant enzyme	scaled by relative mRNA abundance	–	contribution to total CLint	73%

Structure (SMILES)	target	assay	test system	setting	how to read	quantity	value
O=C(O)C1OC(Oc2ccc3oc(-c4ccccc4)cc(=O)c3c2)C(O)C(O)C1O (centres unmarked)	ABCG2	substrate, vesicular transport	BCRP membrane vesicles	–	–	Km	23.4 µM
Cc1cc(C)c(-c2cc(C)c(OP(=O)([O-])OCCC[C@H](C(=O)[O-])N3CCN(CC(=O)[O-])CCN(CC(=O)NCCC(=O)[O-])CCN(CC(=O)[O-])CC3)cc2C)c(C)c1.[Gd+3]	ALB	albumin binding, variable temperature NMRD fit	albumin-bound complex	0.1 mM, pH 7.4, 37 °C, fit 5-35 °C data, added: HSA 0.66 mM	–	water residency time	579 ns
O=C(/C=C/c1cccs1)c1ccc2c(c1)OCO2	ABCG2	mitoxantrone efflux, flow cytometry	HEK293 transfected with ABCG2	5 µM, 30 min, added: mitoxantrone	reference: 5 µM GF120918 as 100%	inhibition	18.2 ± 5.2%
O=C(O)C1OC(Oc2ccccc2-c2cc(=O)c3ccccc3o2)C(O)C(O)C1O (centres unmarked)	ABCG2	efflux of glucuronide, substrate	HeLa-UGT1A9	–	–	Km	5.4 µM
Cc1sc2c(c1C)C(c1ccc(Cl)cc1)=N[C@@H](CC(=O)NCCOCCNC(=O)C(c1ccc(CNc3cccc4c3CN(C3CCC(=O)NC3=O)C4=O)cc1)N1CCOCC1)c1nnc(C)n1-2 (some centres unmarked)	ALB	HPLC, immobilised HSA column	–	concentration not given	–	HSA binding	91%
O=C(O)C1OC(Oc2ccc(-c3cc(=O)c4ccccc4o3)cc2)C(O)C(O)C1O (centres unmarked)	ABCG2	substrate, vesicular transport	BCRP membrane vesicles	–	–	Km	15.4 µM
Cc1cc(C)c(-c2cc(C)c(OP(=O)([O-])OCCC[C@H](C(=O)[O-])N3CCN(CC(=O)[O-])CCN(Cc4ccccc4[O-])CCN(CC(=O)[O-])CC3)cc2C)c(C)c1.[Gd+3]	ALB	variable temperature NMRD	HSA-bound complex	concentration not given	–	activation enthalpy of water exchange	8.34 kcal/mol
O=C(O[C@H](CO)C(F)(F)F)N1C[C@@H]2[C@H](C1)[C@H]2c1ccn(-c2ccc([18F])nc2)n1	Monoglyceride lipase (Rattus norvegicus, UniProt Q8R431)	PET	Sprague-Dawley rats, whole brain	iv	–	Tmax brain uptake	1.5 min
O=C(/C=C/c1ccc([N+](=O)[O-])cc1)c1ccc2c(c1)OCO2	ABCG2	mitoxantrone efflux, flow cytometry	HEK293 transfected with ABCG2	5 µM, 30 min, added: mitoxantrone	reference: 5 µM GF120918 as 100%	inhibition	13.2 ± 5.2%
C=C1CCC(O)CC1=CC=C1CCCC2(C)C1CCC2C(C)(O)CCCCCC (centres unmarked)	1,25-dihydroxyvitamin D(3) 24-hydroxylase, mitochondrial (Rattus norvegicus, UniProt Q09128)	substrate	phospholipid vesicles	1 h, 0.025 mol per mol phospholipid, 1 µM enzyme	–	number of products	2
O=C(/C=C/c1cccc2ccccc12)c1ccc2c(c1)OCO2	ABCG2	mitoxantrone efflux, flow cytometry	HEK293 transfected with ABCG2	5 µM, 30 min, added: mitoxantrone	reference: 5 µM GF120918 as 100%	inhibition	57.2 ± 8.3%
Cc1ccc(S(=O)(=O)N2N=Cc3ccsc3B2O)cc1	Neutrophil elastase (ELANE, Homo sapiens, UniProt P08246)	enzyme activity, inhibitor, fluorimetric	–	–	–	lipophilic ligand efficiency	3.4
COc1cc(O)c(C(=O)/C=C/c2cccc3ccccc23)c(OC)c1	ABCG2	mitoxantrone efflux, flow cytometry	HEK293 transfected with ABCG2	5 µM, 30 min, added: mitoxantrone	reference: 5 µM GF120918 as 100%	inhibition	82.3 ± 11.1%
Cc1cc(C)c(-c2cc(C)c(OP(=O)([O-])OCCC[C@H](C(=O)[O-])N3CCN(CC(=O)[O-])CCN(Cc4cc([N+](=O)[O-])ccc4[O-])CCN(CC(=O)[O-])CC3)cc2C)c(C)c1.[Gd+3]	ALB	albumin binding, variable temperature NMRD fit	albumin-bound complex	0.1 mM, pH 7.4, fit 5-35 °C data, added: HSA 0.66 mM	–	rotational correlation time	11 ns
O=C(/C=C/c1c(Cl)cccc1Cl)c1ccc2ccccc2c1	ABCG2	mitoxantrone efflux, flow cytometry	HEK293 transfected with ABCG2	5 µM, 30 min, added: mitoxantrone	reference: 5 µM GF120918 as 100%	inhibition	42.9 ± 1.2%
[64Cu+2].c1cnc(CNCc2ccc(CN3CCCN4CCNCCCN(CC4)CC3)cc2)nc1	CXCR4	–	NOD/SCID mouse, U87 and U87-stb-CXCR4 xenografts, bladder	iv, 90 min, ex vivo	–	tissue uptake	3.3 ± 0.95 %ID/g
